{"data": "Published values from different studies", "organism": "Salmonella typhimurium", "note": "Protocols differ between the studies behind these lines. ± gives the spread as reported."}
{"SMILES": "Cc1cc(C(=O)NC(C)(C)COc2cccc3c2C(N)=NS(=O)(=O)N3)cc(C)n1", "test": "Ames test, initial", "test system": "TA100", "setting": "1500 µg/plate, added: rat liver S9", "scale": "relative to: solvent control", "measurement": "revertant ratio", "result": 1.3}
{"SMILES": "O=[N+]([O-])c1ccc(NC2CCNCC2)c(C(F)(F)F)c1", "test": "SOS/umu test", "test system": "TA1535/pSK1002", "setting": "0.5 mg/mL, 4 h, without S9, full range", "measurement": "survival", "result": "33.9%"}
{"SMILES": "COCCN(CCOC)N=O", "test": "mutagenicity, Ames plate incorporation", "test system": "TA98", "setting": "500 µg/plate, 3 d, without S9, methanol", "measurement": "revertant colonies per plate", "result": "31.7 ± 4"}
{"SMILES": "O=[N+]([O-])c1ccc(N2CCN(CCC(O)c3ccc(F)cc3)CC2)c(C(F)(F)F)c1 (stereo not drawn)", "test": "SOS/umu test", "test system": "TA1535/pSK1002", "setting": "0.063 mg/mL, 4 h, with S9, full range", "measurement": "survival", "result": "35%"}
{"SMILES": "O=NN1CCN(C2CCCC2)CC1", "test": "mutagenicity, Ames plate incorporation", "test system": "TA1537", "setting": "150 µg/plate, 3 d, without S9, methanol", "measurement": "revertant colonies per plate", "result": "9.3 ± 5"}
{"SMILES": "O=[N+]([O-])c1ccc(N2CCC(NCCC(O)c3ccc(F)c4ccccc34)CC2)c(C(F)(F)F)c1 (stereo not drawn)", "test": "SOS response, SOS/umu test", "test system": "TA1535/pSK1002, TGA medium", "setting": "1.53e-05 mg/mL, 4 h, without S9", "scale": "relative to: untreated", "measurement": "induction factor", "result": 0.6}
{"SMILES": "CN(CC(C)(C)C)N=O", "test": "mutagenicity, Ames plate incorporation", "test system": "TA100", "setting": "500 µg/plate, without S9, methanol", "measurement": "revertant colonies per plate", "result": "167 ± 14"}
{"SMILES": "CC(=O)N1CCC(C(=O)N2CCN3C(=O)c4cc(-c5ccccc5)ccc4NC(=O)C3C2)CC1 (stereo not drawn)", "test system": "TA1537", "setting": "5.0 µg/plate", "scale": "relative to: vehicle", "measurement": "fold increase in revertants", "result": 1}
{"SMILES": "OC(CCN1CC=C(c2ccc(F)cc2)CC1)c1ccc(F)c2ccccc12 (stereo not drawn)", "test": "SOS/umu test", "test system": "TA1535/pSK1002", "setting": "0.063 mg/mL, 4 h, with S9, full range", "measurement": "survival", "result": "38.8%"}
{"SMILES": "N#C[C@@]1(n2ccc(N)nc2=O)O[C@H](CO)[C@@H](O)[C@H]1O", "test system": "TA100", "setting": "50 µM, without S9, unit not given", "scale": "relative to: control", "measurement": "viability", "result": 79.5}
{"SMILES": "COc1cccc(-c2n[nH]c(SCc3ccccn3)n2)c1OC", "test": "Ames test, preincubation", "test system": "TA1537", "setting": "0.063 mg/plate, without S9", "measurement": "revertant colonies per plate", "result": 9}
{"SMILES": "CNC(=O)c1c(N(C)N=O)ncn1C", "test": "mutagenicity, Ames plate incorporation", "test system": "TA1537", "setting": "2500 µg/plate, without S9, methanol", "measurement": "revertant colonies per plate", "result": "8.3 ± 6"}
